Results collected from several papers.
± gives the spread as reported. In brackets after ≈: the same amount, converted by molar mass.

Molecule = Cc1ccc(S(=O)(=O)N2C(=O)CSC2c2cccc([N+](=O)[O-])c2)cc1 (stereo not drawn); organism = Lacticaseibacillus casei; test = broth microdilution; system = NCIM 2651; endpoint = MIC; value = 32 µg/mL (≈ 84.6 µM)
Molecule = OC(Cn1cncn1)(Cn1cncn1)c1ccc(F)cc1F; organism = Nannizzia gypsea; test = broth microdilution; system = PTCC 5070; setting = 48 h, 37 °C; endpoint = MIC90; value = 4 µg/mL (≈ 13.1 µM)
Molecule = OB(O)O; organism = Serratia marcescens; test = broth macrodilution; system = clinical isolate; setting = together with: zinc borate 9%; endpoint = MBC; value = 3%
Molecule = Cc1ccc(S(=O)(=O)N2C(=O)CSC2c2cccc(F)c2)cc1 (stereo not drawn); organism = Lacticaseibacillus casei; test = broth microdilution; system = NCIM 2651; endpoint = MIC; value = 8 µg/mL (≈ 22.8 µM)
Molecule = NS(=O)(=O)c1ccc(-n2c(SCC(=O)Nc3ccccc3)nc3ccccc3c2=O)cc1; organism = Candida albicans; test = microbial growth, well diffusion; system = ATCC10231; setting = 500 µg/mL, 72 h; endpoint = inhibition zone; value = 19 mm
Molecule = c1ccc2c(NCCCn3ccnc3)nncc2c1; organism = Leishmania braziliensis; system = J774.2 macrophages; setting = IC25, 240 h, day 10; scale = baseline: untreated; endpoint = infection inhibition; value = 72%
Molecule = CC[C@H]1OC(=O)[C@H](C)[C@@H](O[C@H]2C[C@@](C)(OC)[C@@H](O)[C@H](C)O2)[C@H](C)[C@@H](O[C@@H]2O[C@H](C)C[C@H](N(C)C)[C@H]2O)[C@](C)(O)C[C@@H](C)CN(C)[C@H](C)[C@@H](O)[C@]1(C)O; organism = other Haemophilus species; system = community-acquired pneumonia patients; setting = Fine score below 70; endpoint = sensitive strains; value = 100%
Molecule = Cc1ccccc1NC(=O)Nc1nnc(SCC(O)(Cn2cncn2)c2ccc(F)cc2F)s1 (stereo not drawn); organism = Nannizzia gypsea; test = broth microdilution; system = PTCC 5070; setting = 48 h, 37 °C; endpoint = MIC90; value = 8 µg/mL (≈ 15.9 µM)
Molecule = COc1cc2[nH]c(C)c(-c3ccc(C(F)(F)F)cc3)c(=O)c2cc1Cl; organism = Plasmodium berghei (GFP); system = mice; setting = oral, 50 mg/kg once daily, days 3-5, day 6 post-infection; endpoint = parasitaemia suppression; value = 10 ± 1.2%
Molecule = NCCNC(=O)CN1C(=O)Cc2c([nH]c3ccc(Br)cc23)-c2ccc(Cl)cc21; organism = Leishmania braziliensis; test = intracellular amastigote infection, DAPI fluorescence microscopy; system = macrophages; setting = 10 µM, 24 h, 5 µM if macrophages detach; scale = lower = more active; endpoint = infected macrophages; value = 38 to 68%
Molecule = Cc1ccc(NC(=O)Nc2nnc(SCC(O)(Cn3cncn3)c3ccc(F)cc3F)s2)cc1Cl (stereo not drawn); organism = Nannizzia gypsea; test = broth microdilution; system = PTCC 5070; setting = 48 h, 37 °C; endpoint = MIC90; value = 2 to 4 µg/mL (≈ 3.72 to 7.43 µM)
Molecule = CNCCOC(=O)OCOc1c(-c2ccc(C(F)(F)F)cc2)c(C)nc2cc(OC)c(Cl)cc12; organism = Plasmodium berghei (GFP); system = mice; setting = oral, 10 mg/kg once daily, days 3-5, day 6 post-infection; endpoint = parasitaemia suppression; value = 75 ± 0.4%
Molecule = Cc1ccc(C(=O)N(C(=O)c2ccc(C)cc2)C(=S)N2N=C(c3ccc(C)cc3)CC2c2ccc(F)cc2)cc1 (stereo not drawn); organism = Aspergillus fumigatus; test = microbial growth, disc diffusion; setting = 100 µM; endpoint = inhibition zone; value = 5 mm
Molecule = C[C@@H]1N[C@H](CCCCCCCCCCc2cc(CCCCCCCCCC[C@H]3CC[C@@H](O)[C@@H](C)N3)c[n+]3c2CCC3)CC[C@H]1O; organism = Leishmania donovani; test = parasite growth; system = THP-1; setting = intracellular, amastigote; endpoint = IC90; value = 9.49 µg/mL
Molecule = CO[C@@H]1CC[C@@]2(C)[C@@H](C1)C[C@@H](O)[C@@H]1[C@@H]2CC[C@]2(C)[C@@H]([C@H](C)CCC(=O)O)CC[C@@H]12; organism = Clostridioides difficile; test = spore germination, inhibitor, OD600; system = NAP1; setting = 20 min, together with: 2000 µM taurocholate; endpoint = complete inhibition concentration; value = > 100 µM
Molecule = NC(=O)c1ncn([C@@H]2O[C@H](CO[P@@](=O)(O)O[P@](=O)(O)OP(=O)(O)O)[C@@H](O)[C@H]2O)n1; organism = Hepatitis E virus; test = viral replication, inhibitor, luciferase; setting = 48 h, replicon; endpoint = EC50; value = 7 µM
Molecule = CCCCCCCc1cc(=O)c2c(CC(=O)OC)cc(O)cc2o1; organism = Phyllosticta citricarpa; system = PDA plates; setting = 10000 µg/mL, 504 h; endpoint = mycelial growth; value = 3.4 ± 0.1 cm
Molecule = CN(C(=O)c1ccn2ncc(-c3ccc(C(N)=O)cc3)c2c1)c1ccc(C#N)cn1; organism = Cryptosporidium parvum; test = cytopathic effect; system = HCT-8; setting = 48 h; endpoint = EC50; value = 0.156 ± 0.028 µM
Molecule = CO[C@H]1C[C@@H]2C[C@H](O)CC[C@]2(C)[C@H]2CC[C@]3(C)[C@@H]([C@H](C)CCC(=O)O)CC[C@H]3[C@H]12; organism = Clostridioides difficile; test = spore germination, inhibitor, OD600; system = NAP1; setting = 20 min, together with: 2000 µM taurocholate; endpoint = complete inhibition concentration; value = > 500 µM
Molecule = GYENPTYKFFEQMQN; organism = Loligo pealeii; test = axonal transport; system = peptide, squid giant axon; setting = cargo beads; endpoint = attachment rate k0; value = 0.0394 s⁻¹
Molecule = CC[C@H]1OC(=O)[C@H](C)[C@@H](O[C@H]2C[C@@](C)(OC)[C@@H](O)[C@H](C)O2)[C@H](C)[C@@H](O[C@@H]2O[C@H](C)C[C@H](N(C)C)[C@H]2O)[C@](C)(O)C[C@@H](C)C(=O)[C@H](C)[C@@H](O)[C@]1(C)O; organism = all pathogens; system = community-acquired pneumonia patients; setting = Fine score 70 or more; endpoint = sensitive strains; value = 26.3%
Molecule = CN[C@H](CC(C)C)C(=O)N[C@H]1C(=O)N[C@@H](CC(N)=O)C(=O)N[C@H]2C(=O)N[C@H]3C(=O)N[C@H](C(=O)N[C@H](C(=O)O)c4cc(O)cc(O)c4-c4cc3ccc4O)[C@H](O)c3ccc(c(Cl)c3)Oc3cc2cc(c3O[C@@H]2O[C@H](CO)[C@@H](O)[C@H](O)[C@H]2O[C@H]2C[C@](C)(N)[C@H](O)[C@H](C)O2)Oc2ccc(cc2Cl)[C@H]1O; organism = Staphylococcus aureus CVCC546; test = ELISA, measured: IL-1β; system = CD-1 mouse endometritis; setting = 10 µg/mL, 24 h; endpoint = serum cytokine level; value = 199 pg/mL
Molecule = CNC(=O)c1ccc(-c2cnn3ccc(C(=O)N(C[C@H]4CCC(=O)O4)c4ccc(OC(F)(F)F)cc4)cc23)cc1; organism = Cryptosporidium hominis; test = cytopathic effect; system = HCT-8; setting = 48 h; endpoint = EC50; value = 0.503 µM
Molecule = Cc1ccc(S(=O)(=O)N2C(=O)CSC2c2ccccc2Cl)cc1 (stereo not drawn); organism = Lacticaseibacillus casei; test = broth microdilution; system = NCIM 2651; endpoint = MIC; value = 16 µg/mL (≈ 43.5 µM)
Molecule = CC(=O)OC[C@@]1(C)[C@H]2CC[C@@H]3CN(Cc4ccc(Br)cc4)[C@@H](C4=CCOC4=O)C[C@H]3[C@]2(C)CC[C@H]1OC(C)=O; organism = Human coronavirus 229E; test = viral replication, cytopathic effect; system = MRC5 cells; setting = 25 µM; endpoint = inhibition; value = ~100%
Molecule = C[C@@H]1[C@H](O)[C@@H](C)/C=C/C=C/C=C/C=C/C=C/C=C/C=C/[C@H](O[C@@H]2O[C@H](C)[C@@H](O)[C@H](N)[C@@H]2O)C[C@@H]2O[C@](O)(C[C@@H](O)C[C@@H](O)[C@H](O)CC[C@@H](O)C[C@@H](O)CC(=O)O[C@H]1C)C[C@H](O)[C@H]2C(=O)O; organism = Leishmania braziliensis; test = parasite growth; system = J774; setting = 24 h, intracellular, amastigote; endpoint = EC50; value = 0.2 µM
Molecule = Cc1c(C(=O)Nc2ccc3c(c2)B(O)OC3)nnn1-c1ccccn1; organism = Leishmania aethiopica; system = mouse peritoneal macrophages (CD-1), MHOM/ET/84/KH; setting = 72 h, 34 °C, intracellular amastigotes; endpoint = EC50; value = 12.3 µM
Molecule = Cc1ccc(C2SCC(=O)N2S(=O)(=O)c2ccc(C)cc2)cc1 (stereo not drawn); organism = Lacticaseibacillus casei; test = broth microdilution; system = NCIM 2651; endpoint = MIC; value = > 256 µg/mL
Molecule = CC1(C)S[C@@H]2[C@H](NC(=O)[C@H](N)c3ccc(O)cc3)C(=O)N2[C@H]1C(=O)O; organism = other Enterobacteriaceae; system = community-acquired pneumonia patients; setting = Fine score 70 or more; endpoint = sensitive strains; value = 28.6%
Molecule = COc1ccc(NC(=O)Nc2nnc(SCC(O)(Cn3cncn3)c3ccc(F)cc3F)s2)cc1 (stereo not drawn); organism = Nannizzia gypsea; test = broth microdilution; system = PTCC 5070; setting = 48 h, 37 °C; endpoint = MIC90; value = 2 to 4 µg/mL (≈ 3.85 to 7.7 µM)
Molecule = Cc1cccc(NC(=O)CSc2nc3ccccc3c(=O)n2-c2ccc(S(N)(=O)=O)cc2)c1; organism = Candida albicans; test = microbial growth, well diffusion; system = ATCC10231; setting = 500 µg/mL, 72 h; endpoint = inhibition zone; value = 22 mm
Molecule = O=C(CN1C(=O)Cc2c([nH]c3ccc(Br)cc23)-c2ccc(Cl)cc21)N1CCOCC1; organism = Leishmania braziliensis; test = parasite growth; system = J774; setting = 24 h, intracellular, amastigote; endpoint = EC50; value = 1.6 µM
Molecule = O=C(Nc1nnc(SCC(O)(Cn2cncn2)c2ccc(F)cc2F)s1)Nc1ccccc1C(F)(F)F (stereo not drawn); organism = Nannizzia gypsea; test = broth microdilution; system = PTCC 5070; setting = 48 h, 37 °C; endpoint = MIC90; value = 2 µg/mL (≈ 3.59 µM)
Molecule = O=C(CN1C(=O)Cc2c([nH]c3ccc(Br)cc23)-c2ccc(Cl)cc21)NCCN1CCCCC1; organism = Leishmania braziliensis; test = parasite growth; system = J774; setting = 24 h, intracellular, amastigote; endpoint = EC50; value = 4.1 µM
Molecule = CC(C)(C)Oc1ccc(CC2NC(=O)C(C(=O)NC(C(=O)NC3C(=O)N4C3SC(C)(C)C4C(=O)O)c3ccccc3)=C2O)cc1 (stereo not drawn); organism = Escherichia coli; test = broth microdilution; system = BW25113, Mueller-Hinton broth; setting = together with: 2,2'-bipyridyl 30 µg/mL; endpoint = MIC; value = 12.5 µg/mL (≈ 19.6 µM)
Molecule = O=C(Nc1ccccc1)Nc1nnc(SCC(O)(Cn2cncn2)c2ccc(F)cc2F)s1 (stereo not drawn); organism = Nannizzia gypsea; test = broth microdilution; system = PTCC 5070; setting = 48 h, 37 °C; endpoint = MIC90; value = 2 to 4 µg/mL (≈ 4.09 to 8.17 µM)
Molecule = CCN(CC)C(=O)CN1C(=O)Cc2c([nH]c3ccc(Br)cc23)-c2ccc(Cl)cc21; organism = Leishmania braziliensis; test = intracellular amastigote infection, DAPI fluorescence microscopy; system = macrophages; setting = 10 µM, 24 h, 5 µM if macrophages detach; scale = lower = more active; endpoint = infected macrophages; value = 72 to 107%
Molecule = CNC(=O)c1ccc(-c2cnn3ccc(C(=O)N(CC(=O)O)c4ccc(Cl)cc4)cc23)cc1; organism = Cryptosporidium hominis; test = cytopathic effect; system = HCT-8; setting = 48 h; endpoint = EC50; value = > 20 µM
Molecule = COc1cc2[nH]c(C)c(-c3ccc(Oc4ccc(OC(F)(F)F)cc4)cc3)c(=O)c2cc1Cl; organism = Plasmodium yoelii; test = suppression test; system = mouse; setting = oral, 4 days, blood stage, PEG-400 vehicle; scale = baseline: untreated; endpoint = ED90; value = 0.06 mg/kg/day
